Measurements from different studies.
Compare with care: the assays were run in different laboratories. ± marks the error that the study gave.

Compound = CC[C@H](C)[C@H](NC(=O)[C@H](CCCCN)NC(=O)CNC(=O)[C@H](CC(C)C)NC(=O)[C@H](Cc1ccccc1)NC(=O)[C@H](CCCCN)NC(=O)[C@H](CO)NC(=O)[C@H](Cc1ccccc1)NC(=O)[C@H](Cc1c[nH]c2ccccc12)NC(=O)[C@H](CCC(N)=O)NC(=O)[C@@H](NC(=O)[C@H](Cc1ccccc1)NC(=O)CCCCCNC(=O)CN1CCN(CC(=O)O)CCN(CC(=O)O)CCN(CC(=O)O)CC1)C(C)C)C(=O)N[C@@H](CCC(=O)O)C(=O)N1CCC[C@H]1C(=O)N[C@@H](CC(=O)O)C(=O)N[C@H](C(=O)N[C@@H](CO)C(=O)N[C@@H](CCC(N)=O)C(=O)N[C@H](C(=O)N[C@@H](CCC(N)=O)C(=O)N[C@@H](CC(=O)O)C(=O)N1CCC[C@H]1C(=O)N[C@@H](CC(N)=O)C(=O)N[C@@H](CC(=O)O)C(=O)N[C@@H](CCC(N)=O)C(=O)N[C@@H](Cc1ccc(O)cc1)C(=O)N[C@@H](CCC(=O)O)C(=O)N1CCC[C@H]1C(=O)N[C@@H](Cc1ccccc1)C(=O)O)C(C)C)C(C)C [copper-64 labelled]; test system = C57BL/6 male mouse, tumour-naive, large intestine; conditions = 0.5 h; endpoint = tissue uptake; value = 4.64 ± 0.2 %ID/g
Compound = CSCC[C@H](NC(=O)CNC(=O)[C@H](CCCCN)NC(=O)[C@H](CC(C)C)NC(=O)[C@@H]1CCCN1C(=O)[C@H](CO)NC(=O)[C@H](Cc1c[nH]cn1)NC(=O)[C@H](Cc1c[nH]c2ccccc12)NC(=O)[C@H](CCCNC(=N)N)NC(=O)[C@H](CC(C)C)NC(=O)[C@H](CCCNC(=N)N)NC(=O)[C@H](Cc1c[nH]c2ccccc12)NC(=O)[C@H](CS)NC(=O)CCCCCNC(=O)CN1CCN(CC(=O)O)CCN(CC(=O)O)CCN(CC(=O)O)CC1)C(=O)O [copper-64 labelled]; test = ex vivo biodistribution; test system = BALB/c nude mice, muscle; conditions = intravenous, dose not given, 2 h, Huh-7 tumour-bearing; endpoint = tissue uptake; value = 0.5 %ID/g
Compound = CCCC[C@H]1C(=O)N(C)[C@@H](CCCC)C(=O)N[C@@H](CCCNC(=O)CN2CCN(CC(=O)O)CCN(CC(=O)O)CCN(CC(=O)O)CC2)C(=O)N[C@H](C(=O)NCC(N)=O)CSCC(=O)N[C@@H](Cc2ccc(O)cc2)C(=O)N(C)[C@@H](C)C(=O)N[C@@H](CC(N)=O)C(=O)N2CCC[C@H]2C(=O)N[C@@H](Cc2c[nH]cn2)C(=O)N[C@@H](CC(C)C)C(=O)N(C)CC(=O)N[C@@H](Cc2c[nH]c3ccccc23)C(=O)N[C@@H](CO)C(=O)N[C@@H](Cc2c[nH]c3ccccc23)C(=O)N1C [gallium-68 labelled]; test system = NOD/SCID mice with CHO-hPD-L1 xenograft, pancreas; conditions = 60 min post injection; endpoint = tissue uptake; value = 4.97 ± 2.26 %ID/g
Compound = CC[C@H](C)[C@H](NC(=O)[C@@H](Cc1c[nH]c2ccccc12)NC(=O)[C@@H]1CCCN1C(=O)[C@H](CCCCN)NC(=O)[C@H](CCCCN)NC(=O)CCNC(=O)CCNC(=O)CN1CCN(CC(=O)O)CCN(CC(=O)O)CCN(CC(=O)O)CC1)C(=O)N[C@@H](C[Si](C)(C)C)C(=O)O [gallium-68 labelled]; test system = nude mouse HT-29 xenograft, lungs; conditions = 90 min; endpoint = tissue uptake; value = 1.6 ± 0.24 %ID/g
Compound = O=C1NC2(CC2)COc2ncc(F)cc2[C@H]2COCCN2c2ccn3ncc1c3n2; test system = Sprague-Dawley rat, female, serum; conditions = oral, 2.5 mg/kg/day, 4 weeks daily, end of recovery period; endpoint = alkaline phosphatase activity; value = 35.3 ± 9.8 U/L
Compound = CC[C@H](C)[C@H](NC(=O)[C@H](CCCNC(=N)N)NC(=O)[C@H](CCCCN)NC(=O)[C@H](Cc1ccc(O)cc1)NC(=O)[C@H](CC(=O)O)NC(=O)[C@H](C)NC(=O)CNC(=O)CCOCCOCCOCCNC(=O)CN1CCN(CC(=O)O)CCN(CC(=O)O)CCN(CC(=O)O)CC1)C(=O)N[C@H](C(=O)N[C@@H](CC(C)C)C(=O)N[C@@H](CCCCN)C(=O)N[C@H](C(=O)N[C@@H](CC(N)=O)C(N)=O)C(C)C)[C@@H](C)O [copper-64 labelled]; test = ex vivo gamma counting; test system = C57BL/6J male mice, B16-F10 tumour, liver; conditions = intravenous, 1.85 MBq, 20 min; endpoint = tissue uptake; value = 3.26 ± 1.48 %ID/g
Compound = CC(C)C[C@@H](NC(=O)[C@@H](CCCNC(=N)N)NC(=O)[C@@H](Cc1c[nH]cn1)NC(=O)[C@@H](Cc1c[nH]c2ccccc12)NC(=O)[C@@H](Cc1c[nH]cn1)NC(=O)[C@@H](Cc1ccccc1)NC(=O)[C@H](NC(=O)[C@@H](Cc1ccc(O)cc1)NC(=O)CNC(=O)CNC(=O)CCOCCOCCOCCNC(=O)CN1CCN(CC(=O)O)CCN(CC(=O)O)CC1)[C@H](C)O)C(=O)N[C@H](CC(N)=O)C(=O)N1CCC[C@@H]1C(=O)O [gallium-68 labelled]; test = gamma counting; test system = C57BL/6 mice, male, kidney; conditions = intravenous, 1.85 MBq, 120 min; endpoint = tissue uptake; value = 27.3 ± 5.62 %ID/g
Compound = C[C@H](O)[C@@H](NC(=O)[C@H]1CCCN1C(=O)[C@@H](CCCCN)NC(=O)[C@@H](CO)NC(=O)[C@@H](Cc1ccc(O)cc1)NC(=O)[C@@H](CC(N)=O)NC(=O)CCOCCOCCOCCNC(=O)CN1CCN(CC(=O)O)CCN(CC(=O)O)CCN(CC(=O)O)CC1)C(=O)N[C@H](CC(=O)O)C(=O)N[C@H](CCCNC(=N)N)C(=O)N[C@H](CCC(N)=O)C(=O)N[C@H](Cc1ccc(O)cc1)C(=O)N[C@H](Cc1c[nH]cn1)C(=O)N[C@H](Cc1ccccc1)C(N)=O [gallium-68 labelled]; test = ex vivo gamma counting; test system = BALB/c nude mouse, U-87 MG xenograft, intestine; conditions = intravenous, 1.85 MBq, 120 min; endpoint = tissue uptake; value = 0.06 ± 0.03 %ID/g
Compound = CN1Cc2cc(Cl)ccc2-n2c(nnc2C2CCN(c3cccc([18F])n3)CC2)C1; test system = C57BL/6 mouse male, muscle; conditions = intravenous, 3.7 MBq, 5 min; endpoint = tissue uptake; value = 3.13 ± 0.61 %ID/g
